Measured values of several laboratories.
Each numbered part is a random draw from the data of one study; scales do not carry over between parts.

Sample 1
Target: Histone acetyltransferase KAT6A, winged helix 2, GST fusion (KAT6A, Homo sapiens, UniProt Q92794, residues 85-181)
Technique: protein binding microarray
Form: double-stranded DNA, one strand shown
Sample: in vitro
Concentration: not given
Notes: 8-mer, flanks averaged, mean of 2 arrays, mostly near background
Reference: not given
Direction: higher = stronger binding
Target sequence (chain): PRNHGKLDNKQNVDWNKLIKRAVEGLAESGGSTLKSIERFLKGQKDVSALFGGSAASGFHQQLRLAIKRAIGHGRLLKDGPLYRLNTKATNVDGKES
With `AGCAGTAC` the E-score was -0.00517.
The E-score of `AAGGTCAC` is reported as -0.046.
With `CGCCCCTC` the E-score was -0.00357.
`AAGACGGA` has an E-score of 0.01.
With `AACTGGAG` the E-score was -0.0565.
With `CAACCAGC` the E-score was 0.0928.
`AAATAGTA` gave an E-score of -0.117.
For `AATAAAAA`, the E-score was 0.0359.
`ACCAGAAA` has an E-score of -0.0108.
With `ATTTTCAG` the E-score was -0.00311.
With `AAATCCGG` the E-score was 0.183.
The E-score of `AAAGCCCT` is reported as -0.108.
With `ACACGGAC` the E-score was 0.0293.
With `CCATTCGG` the E-score was 0.195.
`GGTCTGTA` gave an E-score of -0.0572.
`CCACGTCA` gave an E-score of -0.0912.
With `CGATGGTA` the E-score was -0.232.
The E-score of `CATTGTGA` is reported as -0.0755.
With `AACGGTCG` the E-score was 0.0681.
With `CATGAGCA` the E-score was 0.102.
`ACAACAGT` has an E-score of -0.0573.

Sample 2
Target: RNA binding protein fox-1 homolog 2, RRM domain, GST-SBP tag (RBFOX2, Homo sapiens, UniProt O43251-10, residues 100-194)
Technique: RNA Bind-n-Seq
Form: RNA
Sample: in vitro
Concentration: 365 nM
Notes: natural RNA segment, single round, ends assumed
Reference: no-protein control
Direction: higher = stronger binding
Shared flanks, not repeated: GGGAGUUCUACAGUCCGACGAUC … UGGAAUUCUCGGGUGCCAA
Residues (chain): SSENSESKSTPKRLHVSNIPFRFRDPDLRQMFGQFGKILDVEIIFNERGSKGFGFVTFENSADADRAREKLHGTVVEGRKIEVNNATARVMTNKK
Under “RBNS enrichment (R)”, `AUGAUGAAAAUUUAUACUUUCACAUAGGAAAAUAAUUGCCUUUCCAUUGCUCCUUCUGAAGCAUUUCUCAUGUCUAGGUUUUCCUUGGAAGCAUAUUUAGCCAUCUAUGU` is recorded as 0.357.
Under “RBNS enrichment (R)”, `CUAUAGCCAACACAAAGCAAAUGCCAGAGGUAUUGGAUGAUGCCAUAUUUGAACUGCCAUCUAUUAGCAUAUUCAUCACACUACAUAGACAUAGUUUUACUGCCCCCUUU` is recorded as 0.538.
`AAACAAAUUUAAAGGGCCUGUUAAUUCUUAUAUUUUUCUUUACUAAUCAUUUUGGAUUUUUUUCUUUGAAUUAUUGGCAGGGAAUAUACUUAUGUAUGGAAGAUUACUGC`: “RBNS enrichment (R)” 1.19.
`UCUUUGUUCUCCCUCACUCUGCCCUUAGUUAAUAGAAAUUCAGACUCGCCAAGUAAGGCUUCGUGCAUAGUGUCUUCAUGUCGCGUAUAGUUGAGCGCGUUCUUAGCAGU` — result for “RBNS enrichment (R)”: 0.797.
Under “RBNS enrichment (R)”, `AAACACUACAGAUAUUUUGAAUAUCAGUCAUGAUGGCAAUUUCUGUAUAAAAGAGCCUUAAAUGGAACAUUGUUUUGAGAUCAAACUCCCUACCCUCACAAAAGUGGCCA` is recorded as 0.273.
For `CCAUGGGAACCAGCCUGGGCCCUAGUGGAGGGUCCUGGUAGCUGCAGACCAGAGCCUCACACCUCUGGGUUGGGUGUGGAGGAAGAGGGGUACUGAGUUCCCUGGUCCUU`, “RBNS enrichment (R)” read 0.467.
`UCUUAUUUUUGUGGGGUUUUUUUCUCUCUUUUUUUUUAAAUGACUGAAAUUCACUGAAGAAAAAUAUGUGAAGGACCUUCACUCUGAGAUGUUAUAUUUUUUUUUAAAAA` — result for “RBNS enrichment (R)”: 0.421.
Under “RBNS enrichment (R)”, `AUUUUUAUUCAUGUGAAGUGUAUAUGAUUCUCUUGAGAUAAGGUUUUAAGCUAAAAUGUUACUCCCUGUUUUAGUUUCUGAACUCUGACAGAUUGACAGGGACUUUGCUG` is recorded as 0.675.

Sample 3
Target: Sal-like protein 4, full length isoform B (SALL4, Homo sapiens, UniProt Q9UJQ4-2, residues 1-616)
Technique: universal PBM
Form: double-stranded DNA, one strand shown
Sample: in vitro
Concentration: not given
Notes: 8-mer, flanks averaged, mean of replicates
Direction: higher = stronger binding
Target sequence (chain): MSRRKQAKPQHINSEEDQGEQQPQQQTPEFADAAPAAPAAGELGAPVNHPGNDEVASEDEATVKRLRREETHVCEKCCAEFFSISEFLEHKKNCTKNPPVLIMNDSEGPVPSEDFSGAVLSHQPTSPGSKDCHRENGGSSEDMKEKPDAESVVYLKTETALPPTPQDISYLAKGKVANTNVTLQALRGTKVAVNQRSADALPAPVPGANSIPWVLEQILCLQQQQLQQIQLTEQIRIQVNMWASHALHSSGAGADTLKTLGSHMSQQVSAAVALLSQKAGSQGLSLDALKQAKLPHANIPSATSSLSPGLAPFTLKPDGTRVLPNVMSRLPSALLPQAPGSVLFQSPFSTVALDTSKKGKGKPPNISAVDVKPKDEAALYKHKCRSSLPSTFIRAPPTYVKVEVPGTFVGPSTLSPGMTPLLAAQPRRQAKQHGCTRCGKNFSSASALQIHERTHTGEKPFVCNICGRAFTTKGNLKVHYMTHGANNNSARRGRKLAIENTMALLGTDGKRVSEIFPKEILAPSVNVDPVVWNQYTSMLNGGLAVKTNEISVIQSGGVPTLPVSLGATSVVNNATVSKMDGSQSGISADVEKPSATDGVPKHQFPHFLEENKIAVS
The E-score of `GAATTCAA` is reported as 0.14.
`CACGAACC` gave an E-score of -0.206.
`CGCATTCA` gave an E-score of 0.148.
`CCTTCACG` gave an E-score of -0.0547.
With `GTCCTATA` the E-score was 0.0453.
For `CTCCGCCC`, the E-score was -0.25.
`GAGACAGC` has an E-score of -0.218.
The E-score of `GGTAGGGA` is reported as -0.142.
The E-score of `ATAAGAAC` is reported as 0.24.
For `ATGACGAC`, the E-score was 0.024.
The E-score of `CACTACTG` is reported as -0.0207.
The E-score of `ACGCGGCT` is reported as -0.164.
`ACACGCTA` has an E-score of 0.0839.
The E-score of `AGTGCGAT` is reported as 0.0127.
The E-score of `ACCAAGGA` is reported as -0.135.
`GCCGGGCA` gave an E-score of -0.326.
The E-score of `TGCATGCA` is reported as 0.211.
For `CCGCCTGC`, the E-score was -0.302.
`GACTCTAA` gave an E-score of 0.0218.
The E-score of `CTTGTATC` is reported as 0.126.
For `ACATAGTC`, the E-score was 0.2.
The E-score of `CGACTGGC` is reported as -0.339.
`AAGAAACA` gave an E-score of 0.206.
With `TGCTCCCA` the E-score was 0.02.
For `GAGAGGGC`, the E-score was -0.367.

Sample 4
Target: Interferon regulatory factor 5, full length, phosphomimetic (IRF5, Homo sapiens, UniProt Q13568-2, residues 1-514, K96S/S451D/S453D/S456D/S462D)
Technique: protein-binding microarray
Form: double-stranded DNA, one strand shown
Sample: in vitro
Concentration: 250 nM
Notes: 60-bp whole probe
With: salmon DNA 0.4 mg/ml
Reference: random background probes
Direction: higher = stronger binding
Shared flanks, not repeated: GCCTAGCAC … GTCTTGATTCGCTTGACGCTGCTG
`TCATCTACAGGGTTTCACACTGTGCTA` gave a log fluorescence of 0.526 z-score.
`TCATTTTTTTAATTGAGACTGTGCTAG` gave a log fluorescence of 0.606 z-score.
`TTAGAACTGAGTCTAGATTAGTGCTAG` has a log fluorescence of -0.142 z-score.
For `TCAAGTCTTCTCCTCTAACTGTGCTAG`, the log fluorescence was -0.089 z-score.
For `ACTTTTTTTAATTGAGAAGCGTGCTAG`, the log fluorescence was 0.461 z-score.
`TATGAAATGGAAGTTTAGGGGTGCTAG` gave a log fluorescence of 0.213 z-score.
With `TTCTCCATGGGTATGGCCTAGTGCTAG` the log fluorescence was -0.167 z-score.
The log fluorescence of `GACGATATCGGGTTCCGAGACGTGCTA` is reported as 1.44 z-score.
With `TCACATGTTGCTCTCCGACTGTGCTAG` the log fluorescence was -0.215 z-score.
With `TTAGATATCGGTTTCGATTAGTGCTAG` the log fluorescence was 10.5 z-score.
`TCACAGAAGGGAAACAGGACTGTGCTA` gave a log fluorescence of 0.254 z-score.
The log fluorescence of `TTAGGTATCGACTTTCGGTTTGTGCTA` is reported as 9.97 z-score.
`TCAGGTTCCCATTCCAGACTGTGCTAG` gave a log fluorescence of -0.112 z-score.
`TTAGGTTCCGGTTTCGGATAGTGCTAG` gave a log fluorescence of 6.47 z-score.
`TTAGGTTTCCTTTTCCTTAAGTGCTAG` gave a log fluorescence of 1.96 z-score.
The log fluorescence of `AATAAAATGAATATTAGAAGGTGCTAG` is reported as 0.599 z-score.
`TACGGTATCGACTATCGGGACGTGCTA` gave a log fluorescence of 3.94 z-score.
For `TTAGGTTTCGGTCTGGGTTAGTGCTAG`, the log fluorescence was 10.5 z-score.
`TCAAATTTTCATTTTCCACTGTGCTAG` has a log fluorescence of 2.19 z-score.
